Experimental data collected from several papers.
Cell line: A549

`CCCCCCCCCC(=O)N[C@@H](Cc1c[nH]c2ccccc12)C(=O)N[C@H](CC(N)=O)C(=O)N[C@@H](CC(=O)O)C(=O)N[C@@H]1C(=O)NCC(=O)N[C@@H](CCCN)C(=O)N[C@@H](CC(=O)O)C(=O)N[C@H](C)C(=O)N[C@@H](CC(=O)O)C(=O)NCC(=O)N[C@H](CO)C(=O)N[C@@H]([C@H](C)CC(=O)O)C(=O)N[C@@H](CC(=O)c2ccccc2N)C(=O)O[C@@H]1C` gave an EC50 of over 64 µM (cytotoxicity, WST-1; human cells; 5 days, 5% FBS DMEM).
For `O=C(Nc1ccc2c(c1)OC(F)(F)O2)Nc1ccc(Cl)c(C(F)(F)F)c1`, the CC50 was 15.5 µM (24 h).
`Brc1ccc(COc2ccccc2CNCc2cccnc2)cc1` has a cytotoxic concentration of over 12.5 µM.
`Fc1ccc(N/N=C/c2ccc(-c3cccc(/C=N/Nc4ccc(F)cc4F)c3)cc2)c(F)c1` — result for cytotoxicity: “not toxic” (15.5 µg/mL).
`COc1cc(C2=CCCc3c2ccc(OC)c3OC(C)(C)c2ccc([N+](=O)[O-])s2)cc(OC)c1OC`: “hypoxic cytotoxicity ratio” 1.7 (4 h anoxic; baseline: oxic IC50 over anoxic IC50).
For `CC(=O)OC[C@H]1O[C@@H]([S-])[C@H](OC(C)=O)[C@@H](OC(C)=O)[C@@H]1OC(C)=O.CCP(CC)CC.[Au+]`, the EC50 was 0.1 µM (cytotoxicity; 5 days).
`C/C(=N\Nc1ccc(F)cc1)c1ccc(-c2ccc(/C(C)=N/Nc3ccc(F)cc3)cc2)cc1`: cytotoxicity “not toxic” (15.5 µg/mL).
For `Fc1ccc(COc2ccccc2CNCc2ccccc2)cc1`, the cytotoxic concentration was over 12.5 µM.
`COc1cc(C2=CCCc3c2ccc(OC)c3OC(C)c2ccc([N+](=O)[O-])s2)cc(OC)c1OC` (centres unmarked) — result for “hypoxic cytotoxicity ratio”: 3.5 (4 h anoxic; baseline: oxic IC50 over anoxic IC50).
`Clc1ccc(COc2ccc(CNCc3ccccc3)cc2)cc1` gave a cytotoxic concentration of over 50 µM.
For `COc1cc(C2=CCCc3c2ccc(OC)c3OCc2cnc([N+](=O)[O-])n2C)cc(OC)c1OC`, “hypoxic cytotoxicity ratio” read 1.3 (4 h anoxic; baseline: oxic IC50 over anoxic IC50).
